Measurements collected from several papers.
± marks the error that the study gave.
CNR2 full length, on cells Q63R: CNR2 full length, on cells Q63R (Homo sapiens, UniProt P34972)
rpoA/rpoB/rpoC/rpoZ: rpoA/rpoB/rpoC/rpoZ (Escherichia coli)
rpoC β' subunit: rpoC β' subunit 1-1407 (Escherichia coli, UniProt P0A8T7)
rpoC: rpoC 1-1407 (Escherichia coli, UniProt P0A8T7)
B1: uvrB (Escherichia coli, UniProt P0A8F8); sequence looked up; chain MSKPFKLNSAFKPSGDQPEAIRRLEEGLEDGLAHQTLLGVTGSGKTFTIANVIADLQRPTMVLAPNKTLAAQLYGEMKEFFPENAVEYFVSYYDYYQPEAYVPSSDTFIEKDASVNEHIEQMRLSATKAMLERRDVVVVASVSAIYGLGDPDLYLKMMLHLTVGMIIDQRAILRRLAELQYARNDQAFQRGTFRVRGEVIDIFPAESDDIALRVELFDEEVERLSLFDPLTGQIVSTIPRFTIYPKTHYVTPRERIVQAMEEIKEELAARRKVLLENNKLLEEQRLTQRTQFDLEMMNELGYCSGIENYSRFLSGRGPGEPPPTLFDYLPADGLLVVDESHVTIPQIGGMYRGDRARKETLVEYGFRLPSALDNRPLKFEEFEALAPQTIYVSATPGNYELEKSGGDVVDQVVRPTGLLDPIIEVRPVATQVDDLLSEIRQRAAINERVLVTTLTKRMAEDLTEYLEEHGERVRYLHSDIDTVERMEIIRDLRLGEFDVLVGINLLREGLDMPEVSLVAILDADKEGFLRSERSLIQTIGRAARNVNGKAILYGDKITPSMAKAIGETERRREKQQKYNEEHGITPQGLNKKVVDILALGQNIAKTKAKGRGKSRPIVEPDNVPMDMSPKALQQKIHELEGLMMQHAQNLEFEEAAQIRDQLHQLRELFIAAS
B2: dksA A35C (Escherichia coli, UniProt P0ABS1); Alexa Fluor 546 label; sequence looked up; chain MQEGQNRKTSSLSILAIAGVEPYQEKPGEEYMNECQLAHFRRILEAWRNQLRDEVDRTVTHMQDEAANFPDPVDRAAQEEEFSLELRNRDRERKLIKKIEKTLKKVEDEDFGYCESCGVEIGIRRLEARPTADLCIDCKTLAEIREKQMAG
B3: SoxS (Escherichia coli, UniProt P0A9E2); chain MSHQKIIQDLIAWIDEHIDQPLNIDVVAKKSGYSKWYLQRMFRTVTHQTLGDYIRQRRLLLAAVELRTTERPIFDIAMDLGYVSQQTFSRVFRRQFDRTPSDYRHRL
B4: dksA (Escherichia coli, UniProt P0ABS1); sequence looked up; chain MQEGQNRKTSSLSILAIAGVEPYQEKPGEEYMNEAQLAHFRRILEAWRNQLRDEVDRTVTHMQDEAANFPDPVDRAAQEEEFSLELRNRDRERKLIKKIEKTLKKVEDEDFGYCESCGVEIGIRRLEARPTADLCIDCKTLAEIREKQMAG
B5: traR 1-73 (Escherichia coli, UniProt P41065); chain MSDEADEAYSVTEQLTMTGINRIRQKINAHGIPVYLCEACGNPIPEARRKIFPGVTLCVECQAYQERQRKHYA
B6: greB 1-158 (Escherichia coli, UniProt P30128); chain MKTPLVTREGYEKLKQELNYLWREERPEVTKKVTWAASLGDRSENADYQYNKKRLREIDRRVRYLTKCLENLKIVDYSPQQEGKVFFGAWVEIENDDGVTHRFRIVGYDEIFGRKDYISIDSPMARALLKKEVGDLAVVNTPAGEASWYVNAIEYVKP
B7: rnhB (Escherichia coli, UniProt P10442); sequence looked up; chain MIEFVYPHTQLVAGVDEVGRGPLVGAVVTAAVILDPARPIAGLNDSKKLSEKRRLALYEEIKEKALSWSLGRAEPHEIDELNILHATMLAMQRAVAGLHIAPEYVLIDGNRCPKLPMPAMAVVKGDSRVPEISAASILAKVTRDAEMAALDIVFPQYGFAQHKGYPTAFHLEKLAEHGATEHHRRSFGPVKRALGLAS

| Molecule | partner | test | setting | how to read | measurement | result |
| --- | --- | --- | --- | --- | --- | --- |
| ARRB2 (Homo sapiens, UniProt P32121) | CNR2 full length, on cells Q63R | BRET | no exogenous GRK, added: 2-AG | – | span of concentration-response | 205 ΔBRET.s |
| B1 (uvrB) | rpoA/rpoB/rpoC/rpoZ | dynamic light scattering | – | – | molecule per partner | 1 |
| B2 (dksA A35C) | rpoA/rpoB/rpoC/rpoZ core RNAP del943-1130 in rpoC (Escherichia coli) | fluorescence anisotropy | pH 7.5, 30 °C, NaCl 50 mM, apparent | – | Kd | 0.042 ± 0.007 µM |
| ARRB1 (Homo sapiens, UniProt P49407) | CNR2 full length, on cells Q63R | BRET | no exogenous GRK, added: 2-AG | – | span of concentration-response | 56.1 ΔBRET.s |
| B3 (SoxS) | RNA polymerase holoenzyme (Escherichia coli) | in vitro transcription | – | reference: without SoxS, higher = more activation | transcription activity | 0.15 ratio |
| B4 (dksA) | rpoC β' subunit | crystal structure | without ppGpp | – | binding | binds |
| MoaA peptide (Staphylococcus aureus) | moaA D98A/G340A (Staphylococcus aureus, UniProt P69848) | MoaA/MoaC coupled assay | 200 µM | reference: 8-mer peptide, higher = more activity | restored activity | > 5 fold |
| B5 (traR 1-73) | rpoC β' subunit | crystal structure | without ppGpp | – | binding | binds |
| B6 (greB 1-158) | rpoC | cryo-EM | – | – | binding | binds |
| uvrA (Escherichia coli, UniProt P0A698) | rpoA/rpoB/rpoC/rpoZ | dynamic light scattering | – | – | molecule per partner | 2 |
| B7 (rnhB) | rpoC | cryo-EM | – | – | binding | binds |

Some of these lines once more:
| Molecule | partner | test | setting | how to read | measurement | result |
| --- | --- | --- | --- | --- | --- | --- |
| B7 (rnhB) | rpoC | cryo-EM | – | – | binding | binds |
